# Assay results collected from several papers.
# Numbered parts are unrelated; each lists some results of a single study.
# UniProt Q9P2K8, sequence (whole entry, unmodified, looked up): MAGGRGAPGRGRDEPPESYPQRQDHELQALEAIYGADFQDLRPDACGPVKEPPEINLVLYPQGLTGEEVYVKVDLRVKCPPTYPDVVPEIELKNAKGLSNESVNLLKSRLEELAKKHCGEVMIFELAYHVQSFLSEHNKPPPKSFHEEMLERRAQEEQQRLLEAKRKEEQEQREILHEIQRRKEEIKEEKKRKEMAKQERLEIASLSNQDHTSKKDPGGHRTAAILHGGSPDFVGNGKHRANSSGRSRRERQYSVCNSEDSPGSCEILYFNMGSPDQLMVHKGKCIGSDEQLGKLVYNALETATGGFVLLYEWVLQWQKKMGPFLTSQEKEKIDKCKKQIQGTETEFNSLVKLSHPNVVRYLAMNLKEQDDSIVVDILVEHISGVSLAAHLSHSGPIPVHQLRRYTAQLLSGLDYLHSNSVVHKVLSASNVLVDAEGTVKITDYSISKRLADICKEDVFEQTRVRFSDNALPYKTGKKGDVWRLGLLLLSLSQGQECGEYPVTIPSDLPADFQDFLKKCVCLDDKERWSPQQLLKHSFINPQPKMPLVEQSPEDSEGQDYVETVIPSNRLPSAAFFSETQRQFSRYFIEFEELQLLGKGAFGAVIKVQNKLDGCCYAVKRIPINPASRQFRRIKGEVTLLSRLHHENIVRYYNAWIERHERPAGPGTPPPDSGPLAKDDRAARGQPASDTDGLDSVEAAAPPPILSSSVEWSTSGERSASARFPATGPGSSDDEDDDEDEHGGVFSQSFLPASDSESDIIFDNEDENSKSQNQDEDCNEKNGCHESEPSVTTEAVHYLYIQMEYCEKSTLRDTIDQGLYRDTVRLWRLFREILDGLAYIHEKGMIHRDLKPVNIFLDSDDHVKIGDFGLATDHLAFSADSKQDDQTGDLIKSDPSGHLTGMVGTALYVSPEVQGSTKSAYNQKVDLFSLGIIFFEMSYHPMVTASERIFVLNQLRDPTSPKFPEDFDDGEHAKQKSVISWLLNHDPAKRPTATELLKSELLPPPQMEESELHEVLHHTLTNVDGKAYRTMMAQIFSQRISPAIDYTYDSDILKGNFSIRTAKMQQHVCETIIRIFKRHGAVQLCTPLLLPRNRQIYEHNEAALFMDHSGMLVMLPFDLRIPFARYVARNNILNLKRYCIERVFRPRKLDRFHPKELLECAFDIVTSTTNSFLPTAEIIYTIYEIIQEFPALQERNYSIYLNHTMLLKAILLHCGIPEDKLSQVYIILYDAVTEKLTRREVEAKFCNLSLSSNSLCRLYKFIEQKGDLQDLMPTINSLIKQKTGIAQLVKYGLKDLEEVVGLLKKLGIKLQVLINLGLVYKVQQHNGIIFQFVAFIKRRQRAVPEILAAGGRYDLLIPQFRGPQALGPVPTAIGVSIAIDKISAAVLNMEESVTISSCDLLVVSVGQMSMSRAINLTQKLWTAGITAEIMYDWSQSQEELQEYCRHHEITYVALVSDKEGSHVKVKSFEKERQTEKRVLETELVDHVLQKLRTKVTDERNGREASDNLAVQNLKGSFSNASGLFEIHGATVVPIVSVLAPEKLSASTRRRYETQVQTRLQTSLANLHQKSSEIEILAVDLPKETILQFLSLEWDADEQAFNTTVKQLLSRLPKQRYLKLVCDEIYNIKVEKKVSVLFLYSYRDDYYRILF
# UniProt P00519, sequence (whole entry, unmodified, looked up): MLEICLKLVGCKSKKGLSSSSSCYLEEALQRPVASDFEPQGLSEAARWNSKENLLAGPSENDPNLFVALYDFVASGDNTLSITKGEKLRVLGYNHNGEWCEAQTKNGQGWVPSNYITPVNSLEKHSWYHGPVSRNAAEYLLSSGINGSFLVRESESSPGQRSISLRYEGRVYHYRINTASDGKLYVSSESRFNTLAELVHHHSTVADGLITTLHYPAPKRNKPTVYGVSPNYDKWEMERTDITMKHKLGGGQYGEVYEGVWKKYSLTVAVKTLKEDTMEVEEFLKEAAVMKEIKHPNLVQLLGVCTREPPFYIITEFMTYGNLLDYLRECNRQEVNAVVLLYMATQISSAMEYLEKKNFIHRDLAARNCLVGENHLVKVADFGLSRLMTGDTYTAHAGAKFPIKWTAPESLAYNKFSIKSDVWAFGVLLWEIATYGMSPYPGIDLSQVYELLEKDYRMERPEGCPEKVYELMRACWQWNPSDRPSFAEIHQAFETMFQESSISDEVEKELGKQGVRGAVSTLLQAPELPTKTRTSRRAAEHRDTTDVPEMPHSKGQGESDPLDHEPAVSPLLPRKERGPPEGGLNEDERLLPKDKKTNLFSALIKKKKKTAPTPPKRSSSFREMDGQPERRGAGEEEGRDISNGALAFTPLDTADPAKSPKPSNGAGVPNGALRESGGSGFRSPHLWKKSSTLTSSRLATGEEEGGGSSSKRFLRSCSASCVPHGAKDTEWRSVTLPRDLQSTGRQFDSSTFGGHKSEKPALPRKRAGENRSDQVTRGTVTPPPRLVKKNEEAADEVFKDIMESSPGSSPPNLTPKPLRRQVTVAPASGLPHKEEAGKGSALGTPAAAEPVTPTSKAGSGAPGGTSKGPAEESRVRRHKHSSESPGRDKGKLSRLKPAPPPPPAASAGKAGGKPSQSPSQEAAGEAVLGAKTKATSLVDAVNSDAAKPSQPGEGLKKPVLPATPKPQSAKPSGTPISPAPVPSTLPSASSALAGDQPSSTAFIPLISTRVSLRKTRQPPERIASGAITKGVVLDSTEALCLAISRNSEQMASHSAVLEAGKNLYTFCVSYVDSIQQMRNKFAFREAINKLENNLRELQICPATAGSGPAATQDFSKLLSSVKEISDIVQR
# UniProt O15146, sequence (whole entry, looked up): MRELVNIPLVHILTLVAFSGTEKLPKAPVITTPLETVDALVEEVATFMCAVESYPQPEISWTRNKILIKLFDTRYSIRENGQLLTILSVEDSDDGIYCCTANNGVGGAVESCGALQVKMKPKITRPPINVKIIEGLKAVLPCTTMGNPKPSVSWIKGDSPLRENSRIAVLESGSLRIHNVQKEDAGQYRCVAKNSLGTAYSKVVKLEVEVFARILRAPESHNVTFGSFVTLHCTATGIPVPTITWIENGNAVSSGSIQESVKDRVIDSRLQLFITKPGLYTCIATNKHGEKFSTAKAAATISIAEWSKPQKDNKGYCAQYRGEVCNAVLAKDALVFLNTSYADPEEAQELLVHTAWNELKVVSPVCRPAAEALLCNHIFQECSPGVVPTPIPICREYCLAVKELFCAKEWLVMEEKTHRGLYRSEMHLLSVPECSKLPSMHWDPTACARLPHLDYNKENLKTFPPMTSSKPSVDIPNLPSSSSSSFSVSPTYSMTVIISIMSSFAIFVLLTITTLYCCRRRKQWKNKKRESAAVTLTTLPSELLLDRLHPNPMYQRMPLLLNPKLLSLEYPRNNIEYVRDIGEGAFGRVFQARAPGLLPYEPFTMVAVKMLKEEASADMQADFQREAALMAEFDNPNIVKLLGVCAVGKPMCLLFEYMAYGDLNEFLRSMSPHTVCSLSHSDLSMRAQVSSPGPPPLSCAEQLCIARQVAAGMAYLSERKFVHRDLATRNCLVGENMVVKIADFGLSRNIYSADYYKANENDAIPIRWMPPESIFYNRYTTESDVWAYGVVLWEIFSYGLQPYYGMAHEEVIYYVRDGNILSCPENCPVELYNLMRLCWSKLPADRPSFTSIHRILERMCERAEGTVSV
# UniProt Q9UK32, sequence (whole entry, looked up): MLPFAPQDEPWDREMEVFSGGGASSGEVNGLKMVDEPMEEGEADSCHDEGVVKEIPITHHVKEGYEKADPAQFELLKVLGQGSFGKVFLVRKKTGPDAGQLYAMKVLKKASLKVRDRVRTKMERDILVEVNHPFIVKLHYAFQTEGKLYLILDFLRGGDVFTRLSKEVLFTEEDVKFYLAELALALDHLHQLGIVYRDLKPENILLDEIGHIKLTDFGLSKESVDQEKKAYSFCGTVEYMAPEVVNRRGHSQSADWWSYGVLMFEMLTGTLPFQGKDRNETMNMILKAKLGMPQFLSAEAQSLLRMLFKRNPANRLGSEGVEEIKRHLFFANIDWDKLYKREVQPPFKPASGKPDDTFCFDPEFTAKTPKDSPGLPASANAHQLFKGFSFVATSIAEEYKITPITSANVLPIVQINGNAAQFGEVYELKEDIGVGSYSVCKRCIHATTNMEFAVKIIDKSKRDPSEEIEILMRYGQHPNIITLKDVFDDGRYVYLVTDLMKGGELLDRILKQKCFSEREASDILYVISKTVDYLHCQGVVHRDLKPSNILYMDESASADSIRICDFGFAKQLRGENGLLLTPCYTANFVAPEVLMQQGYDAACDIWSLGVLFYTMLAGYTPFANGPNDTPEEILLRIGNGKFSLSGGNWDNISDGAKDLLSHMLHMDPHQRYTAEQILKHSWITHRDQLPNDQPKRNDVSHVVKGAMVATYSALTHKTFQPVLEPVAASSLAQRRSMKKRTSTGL

# Set 1
# SMILES: Nc1cnc(N2CCc3cc(S(=O)(=O)Nc4c(F)cc(Cl)cc4F)cc(N4CCCC4=O)c32)nc1
# Technique: competition with immobilised ligand
# Concentration: 1 µM
target,effect on,remaining binding
"eIF-2-alpha kinase GCN2, C-terminal kinase domain (EIF2AK4, Homo sapiens, UniProt Q9P2K8, S808G)",cell-free assay,100%
"Serine/threonine-protein kinase Chk2 (CHEK2, Homo sapiens, UniProt O96017)",cell-free assay,92%
"ALK tyrosine kinase receptor (ALK, Homo sapiens, UniProt Q9UM73, L1196M)",cell-free assay,81%
"Ribosomal protein S6 kinase alpha-6, N-terminal kinase domain (RPS6KA6, Homo sapiens, UniProt Q9UK32)",cell-free assay,86%
"Fibroblast growth factor receptor 3 (FGFR3, Homo sapiens, UniProt P22607)",cell-free assay,100%
"Casein kinase I isoform gamma-3 (CSNK1G3, Homo sapiens, UniProt Q9Y6M4)",cell-free assay,78%
"Tyrosine-protein kinase ABL1, non-phosphorylated (ABL1, Homo sapiens, UniProt P00519, F317I)",binding,100%
"Cyclin-dependent kinase-like 3 (CDKL3, Homo sapiens, UniProt Q8IVW4)",cell-free assay,100%
"Muscle, skeletal receptor tyrosine-protein kinase (MUSK, Homo sapiens, UniProt O15146)",cell-free assay,100%
"TGF-beta receptor type-1 (TGFBR1, Homo sapiens, UniProt P36897)",cell-free assay,100%

# Set 2
# Target: Casein kinase II subunit alpha' (CSNK2A2, Homo sapiens, UniProt P19784)
# UniProt P19784, sequence (whole entry, looked up): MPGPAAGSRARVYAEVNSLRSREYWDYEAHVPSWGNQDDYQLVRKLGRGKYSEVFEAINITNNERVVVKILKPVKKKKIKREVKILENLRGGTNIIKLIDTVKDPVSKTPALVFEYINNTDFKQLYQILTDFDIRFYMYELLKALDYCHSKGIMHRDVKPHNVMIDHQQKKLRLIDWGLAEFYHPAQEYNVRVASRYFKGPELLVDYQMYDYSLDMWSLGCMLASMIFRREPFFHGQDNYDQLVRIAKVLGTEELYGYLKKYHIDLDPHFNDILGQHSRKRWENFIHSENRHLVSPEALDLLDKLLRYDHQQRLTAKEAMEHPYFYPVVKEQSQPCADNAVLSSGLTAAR
# Effect on: enzyme activity
# Mode: inhibitor
# Concentration: 0.5 µM
# Relative to: control
SMILES,remaining activity [%]
O=C(Nc1cccc(Nc2cc(Nc3cccc(C(F)(F)F)c3)ncn2)c1)C1CC1,94.9
C#Cc1cccc(Nc2ncnc3cc(OCCOC)c(OCCOC)cc23)c1,99.6
CCOC(=O)c1c(C)[nH]c(/C=C2\C(=O)Nc3ccccc32)c1C,94.7
Cn1c2ccccc2c2c3c(c4c5ccccc5n(CCC#N)c4c21)CNC3=O,104
COc1ccc(OC)c2c(=S)c3ccccc3[nH]c12,87.1
CO[C@H]1C[C@@H]2CC[C@@H](C)[C@@](O)(O2)C(=O)C(=O)N2CCCC[C@H]2C(=O)O[C@H]([C@H](C)C[C@@H]2CC[C@@H](O)[C@H](OC)C2)CC(=O)[C@H](C)/C=C(\C)[C@@H](O)[C@@H](OC)C(=O)[C@H](C)C[C@H](C)/C=C/C=C/C=C/1C,94.2
NCCNc1ncc(C(N)=O)c(Nc2cccc(C(F)(F)F)c2)n1,89.8
COc1ccc(C(=O)Nc2sc3c(c2C(N)=O)CCCC3)cc1OC,104
COc1cc2ncnc(Nc3ccc(F)c(Cl)c3)c2cc1OCCCN1CCOCC1,88.6
COc1cc2ncnc(Nc3ccc(Oc4ccccc4)cc3)c2cc1OC,98.2
CC(C)[C@H](CO)Nc1nc(Nc2cc(N)cc(Cl)c2)c2ncn(C(C)C)c2n1,106
Cc1ccc(Nc2nccc(N(C)c3ccc4c(C)n(C)nc4c3)n2)cc1S(N)(=O)=O,99.8
Oc1ccc(-c2nc(-c3ccncc3)c(-c3ccc(F)cc3)[nH]2)cc1,95.9
Cc1ccc(NC(=O)c2ccc(CN3CCN(C)CC3)cc2)cc1Nc1nc(-c2cccnc2)cs1,86.7

# Set 3
# Cell line: HaCaT
# Concentration: 100 µM
# Time: 36 h
Compound,viability
Nc1nc(F)nc2c1ncn2[C@@H]1O[C@H](COP(=O)(O)O)[C@@H](O)[C@@H]1O,64.6%
O=C1c2cccc(O)c2C(=O)c2c(O)cc(CO)cc21,57.7%
C[C@H]1O[C@H](O[C@H]2[C@H](O)[C@@H](O)[C@@H](O[C@H]3[C@H](O)[C@@H](O)C(O)O[C@@H]3CO)O[C@@H]2CO)[C@H](O)[C@@H](O)[C@@H]1N[C@H]1C=C(CO)[C@@H](O)[C@H](O)[C@H]1O (stereo partly drawn),84.8%
CC(=O)Oc1ccc(C(c2ccc(OC(C)=O)cc2)c2ccccn2)cc1,5.68%
CN1CCC(OC(c2ccccc2)c2ccccc2)CC1,51.9%
Oc1c(I)cc(I)c2cccnc12,10.4%
CN(C)[C@@H]1C(O)=C(C(N)=O)C(=O)[C@@]2(O)C(O)=C3C(=O)c4c(O)ccc(Cl)c4[C@@](C)(O)[C@H]3C[C@@H]12,57.5%
C[C@H]1CC[C@@]2(O)C(C)(C)[C@@H]3CC[C@@]2(C)[C@H]1C3,33.2%
C[N+]1(CCCCC[N+]2(C)CCCC2)CCCC1,92.2%
CC(=O)Oc1cccc2c1C(=O)c1c(OC(C)=O)cc(C(=O)O)cc1C2=O,49.6%

# Set 4
# Host: human
# Matrix: microsomes or S9
# Concentration: 2 µM
# Time: 0.5 h
Structure (SMILES),remaining compound [%]
CC(C)NC(=O)CN1C(=O)c2ccccc2N2C(=O)c3ccccc3C12 (stereo not drawn),99.2
CNC[C@@H]1C[C@H](F)CN1C(=O)Cc1n[nH]c2ccccc12,> 100
Nc1nc(N2CCN(C3CCCCC3)CC2)nc2ccccc12,19.9
CC(=O)CC1c2ccc(Br)cc2NC(C)(C)C(=O)N1OCc1ccccc1 (stereo not drawn),91.2
COc1ccc(NC(=O)N2Cc3c(sc4c3CCCC4)-n3cccc3C2c2cccs2)c(OC)c1 (stereo not drawn),0.217
COc1cc(=O)[nH]cc1C(=O)N1CCCC1c1cn(C)nc1C (stereo not drawn),97.4
COc1cc(Br)c(S(=O)(=O)NC2CCN(C(=O)c3ccccc3)CC2)cc1OC,89.2
O=C1OCc2c(-c3ccccc3)sc(-c3ccccc3)c21,2.8
c1nc(N2CCN(C3CCCCC3)CC2)c2nc[nH]c2n1,97.1
Cc1cc2c(cc1S(=O)(=O)N(C)CC(=O)N(C)Cc1ccco1)OC(C)C(=O)N2 (stereo not drawn),6.55
Cc1nccn1S(=O)(=O)c1ccc(C(C)(C)C)cc1,42.1
Cc1cc(C)c(NS(=O)(=O)c2cnc(O)[nH]c2=O)c(C)c1,> 100
Cc1c(CC(=O)N2CCN(C(=O)C3COc4ccccc4O3)CC2)c(=O)oc2cc(O)c(Cl)cc12 (stereo not drawn),80.6
Cc1cc(CC(C)n2ccnc2-c2ccc(C)o2)[nH]n1 (stereo not drawn),36.7
